Experimental data pooled from the literature.
Each numbered part is a random draw from the data of one study; scales do not carry over between parts.

Set 1 — technique: protein-binding microarray; molecule type: double-stranded DNA, one strand shown; medium: in vitro; concentration: 0.8 µM; setting: whole 60-bp probe, no competitor; reading: higher = stronger binding; endpoint: fluorescence intensity
Target: Centromere-binding protein 1, full length, N-terminal tag (CBF1, Saccharomyces cerevisiae, UniProt P17106, residues 1-351)
Chain of UniProt P17106 (whole entry, looked up): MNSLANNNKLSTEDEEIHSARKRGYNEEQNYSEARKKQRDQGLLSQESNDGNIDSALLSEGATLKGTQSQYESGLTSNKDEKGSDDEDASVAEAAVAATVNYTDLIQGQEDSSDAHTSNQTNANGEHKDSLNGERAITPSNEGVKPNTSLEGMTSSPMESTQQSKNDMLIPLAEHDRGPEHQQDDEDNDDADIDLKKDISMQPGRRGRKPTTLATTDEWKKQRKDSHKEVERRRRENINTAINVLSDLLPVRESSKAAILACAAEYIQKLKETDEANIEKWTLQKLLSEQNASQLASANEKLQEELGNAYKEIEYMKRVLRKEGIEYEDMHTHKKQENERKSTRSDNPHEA
GAAATAACTACATCTGATGTCATAGATTTTAAATAGGTCTTGATTCGCTTGACGCTGCTG: 538 a.u.
GAATGTCACCAACGTCACGAAGAAATGAGTCGGTAGGTCTTGATTCGCTTGACGCTGCTG: 625 a.u.
CCTAACTACTATAATCAGATGTTATAGCTTCGTACAGTCTTGATTCGCTTGACGCTGCTG: 548 a.u.
CTATATTTAACAAAAAACGTGATGGTACACACATTCGTCTTGATTCGCTTGACGCTGCTG: 1420 a.u.

Set 2 — technique: universal PBM; molecule type: double-stranded DNA, one strand shown; medium: in vitro; concentration: 600 nM; reading: higher = stronger binding; endpoint: E-score
Target: Sal-like protein 4, full length isoform A (SALL4, Homo sapiens, UniProt Q9UJQ4, residues 1-1053)
Chain of UniProt Q9UJQ4 (whole entry, looked up): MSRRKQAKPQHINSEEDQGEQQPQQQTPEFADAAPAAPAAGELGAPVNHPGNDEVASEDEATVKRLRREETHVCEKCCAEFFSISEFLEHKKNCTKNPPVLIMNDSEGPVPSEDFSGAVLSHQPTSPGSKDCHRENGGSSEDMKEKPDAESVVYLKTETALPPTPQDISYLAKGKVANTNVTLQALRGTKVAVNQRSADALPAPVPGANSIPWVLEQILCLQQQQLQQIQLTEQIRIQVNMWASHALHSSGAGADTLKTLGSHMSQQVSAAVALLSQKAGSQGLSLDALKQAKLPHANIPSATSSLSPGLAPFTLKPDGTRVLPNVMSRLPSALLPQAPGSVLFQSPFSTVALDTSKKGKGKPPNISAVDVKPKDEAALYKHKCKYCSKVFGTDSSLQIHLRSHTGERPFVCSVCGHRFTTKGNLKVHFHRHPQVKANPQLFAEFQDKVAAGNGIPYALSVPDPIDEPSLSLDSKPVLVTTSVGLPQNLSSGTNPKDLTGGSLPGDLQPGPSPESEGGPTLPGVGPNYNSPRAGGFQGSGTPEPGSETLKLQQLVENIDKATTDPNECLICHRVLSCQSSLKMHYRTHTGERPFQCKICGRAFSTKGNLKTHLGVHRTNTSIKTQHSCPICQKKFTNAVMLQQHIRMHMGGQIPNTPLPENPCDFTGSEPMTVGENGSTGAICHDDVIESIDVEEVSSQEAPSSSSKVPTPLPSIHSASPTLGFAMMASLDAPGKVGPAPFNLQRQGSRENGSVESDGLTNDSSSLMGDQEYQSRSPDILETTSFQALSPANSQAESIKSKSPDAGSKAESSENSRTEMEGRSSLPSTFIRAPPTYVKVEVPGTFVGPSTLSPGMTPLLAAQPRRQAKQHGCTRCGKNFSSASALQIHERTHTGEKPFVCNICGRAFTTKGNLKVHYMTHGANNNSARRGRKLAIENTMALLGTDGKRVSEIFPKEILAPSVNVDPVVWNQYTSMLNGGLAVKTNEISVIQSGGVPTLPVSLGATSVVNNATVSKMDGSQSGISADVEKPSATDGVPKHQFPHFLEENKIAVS
Setting: 8-mer, flanks averaged, mean of replicates
ACATGACT: -0.0325
ATAGCGGC: -0.105
GCCGAGGA: -0.161
CTTGAATA: 0.221

Set 3 — technique: RNA Bind-n-Seq; molecule type: RNA; medium: in vitro; concentration: 1 µM; setting: whole 134-nt RNA, ends assumed; added: 150 mM KCl; relative to: input library; reading: higher = stronger binding; endpoint: log2 enrichment
Target: Ras GTPase-activating protein-binding protein 1, C-terminal RGG region (G3BP1, Homo sapiens, UniProt Q13283)
Chain of UniProt Q13283 (whole entry, looked up): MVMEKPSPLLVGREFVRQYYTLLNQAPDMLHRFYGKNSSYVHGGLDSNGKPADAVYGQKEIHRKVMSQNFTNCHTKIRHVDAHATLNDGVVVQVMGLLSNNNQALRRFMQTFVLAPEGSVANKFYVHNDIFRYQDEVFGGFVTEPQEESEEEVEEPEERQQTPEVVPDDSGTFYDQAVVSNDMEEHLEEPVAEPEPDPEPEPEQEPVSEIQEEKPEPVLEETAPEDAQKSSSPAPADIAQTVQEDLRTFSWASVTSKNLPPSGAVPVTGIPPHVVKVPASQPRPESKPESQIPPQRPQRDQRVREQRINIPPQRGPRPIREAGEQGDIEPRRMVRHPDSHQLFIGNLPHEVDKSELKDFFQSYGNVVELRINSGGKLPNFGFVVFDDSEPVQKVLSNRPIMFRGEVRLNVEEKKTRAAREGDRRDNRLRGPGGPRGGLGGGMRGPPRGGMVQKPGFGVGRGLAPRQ
GGGAGUUCUACAGUCCGACGAUCGCAGGAAGUAAAAACAAAUGGAACUGCUUCGGAUAGUGGCAGGGGUGGGGGUUGCUAAGGAAAGGGUGGGAUGGGAGUGGGUAAAGAGUUUGGAAUUCUCGGGUGUCAAGG: 1.94
GGGAGUUCUACAGUCCGACGAUCUCCUGUGCUACACAUCGUAUGUACCGAAUCGGGUUUUUGGGUUUUUUUGGGUUUUUGGGAAAGUAUUAUGUUACGCCGUUCGGAUCUGCAUGGAAUUCUCGGGUGUCAAGG: -0.277
GGGAGUUCUACAGUCCGACGAUCUGGGAGGUGGAUUUUGUUUAUUUUUUUAGCUCAUUUCCAGGGGUGGGAAUUUUUUUUCAAUAUGUGUCAUGAAUAAAGUUGUUUUUGAAAUGGAAUUCUCGGGUGUCAAGG: 3.33
GGGAGUUCUACAGUCCGACGAUCAGUCCUGUGCUACACAUCGUAUGUACCGAAUCGGGAAAGGGUUUUUUUGGGAAAGGGAAAGUAUUAUGUUACGCCGUUCGGAUCUGCACUUGGAAUUCUCGGGUGUCAAGG: -0.022

Mixed results
PhoQ, residues 284 288 289 292 302 303 TTCLQL  fold induction (PhoP, residues 12 14 15 18 19 LWHVM (Escherichia coli, UniProt P23836); Sort-seq, item: YFP reporter; E. coli; PhoQ-PhoP variant library, added: 10 µM Mg2+; relative to: high Mg2+ state, higher = stronger signaling): 6.63

A few entries again (set 1):
GAATGTCACCAACGTCACGAAGAAATGAGTCGGTAGGTCTTGATTCGCTTGACGCTGCTG: 625 a.u.
CCTAACTACTATAATCAGATGTTATAGCTTCGTACAGTCTTGATTCGCTTGACGCTGCTG: 548 a.u.
